Results pooled from the literature.
Each numbered part is a random draw from the data of one study; scales do not carry over between parts.

Study 1
Target: Histone acetyltransferase KAT6A, both winged helices, GST fusion (KAT6A, Homo sapiens, UniProt Q92794, residues 1-181)
Method: protein binding microarray
Molecule type: double-stranded DNA, one strand shown
Sample: in vitro
Concentration: not given
Notes: 8-mer, flanks averaged, mean of 2 arrays, mostly near background
Relative to: not given
Reading: higher = stronger binding
Construct (chain): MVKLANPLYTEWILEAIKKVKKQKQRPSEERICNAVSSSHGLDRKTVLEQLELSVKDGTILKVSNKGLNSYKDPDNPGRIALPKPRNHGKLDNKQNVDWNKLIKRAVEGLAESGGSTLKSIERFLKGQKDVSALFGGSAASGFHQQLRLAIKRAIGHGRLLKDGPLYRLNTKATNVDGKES
The E-score of `GGCTACAA` is reported as -0.0168.
With `GAAAAACA` the E-score was -0.0402.
For `AAAAACCG`, the E-score was 0.147.
`CGGACCGA` gave an E-score of 0.153.
`AAATCTTA` has an E-score of -0.131.
`AACATTTA` has an E-score of 0.0731.
The E-score of `AGCAACAG` is reported as -0.0927.
The E-score of `AGATTTTA` is reported as -0.0265.
`AGGGATCG` gave an E-score of -0.0922.

Study 2
Target: Interferon regulatory factor 5, full length, phosphomimetic (IRF5, Homo sapiens, UniProt Q13568-2, residues 1-514, K96S/S451D/S453D/S456D/S462D)
Method: protein-binding microarray
Molecule type: double-stranded DNA, one strand shown
Sample: in vitro
Concentration: 250 nM
Notes: 60-bp whole probe
Together with: salmon DNA 0.4 mg/ml
Relative to: random background probes
Reading: higher = stronger binding
Constant ends, left off below: GCCTAGCAC … GTCTTGATTCGCTTGACGCTGCTG
With `GTAGGTCTCCTTTTCCTTTAGTGCTAG` the log fluorescence was 0.00195 z-score.
With `GACGGTATCCTACTGTTGACGTGCTAG` the log fluorescence was -0.0647 z-score.
For `CTCACCTCAGCCTCCCAAGTGTGCTAG`, the log fluorescence was -0.303 z-score.
For `GACGATATGAGTCTCGAGACGTGCTAG`, the log fluorescence was 0.614 z-score.
For `TTAGATTTCAGGTTTCGATTAGTGCTA`, the log fluorescence was 7.44 z-score.
With `TTAGGTATCGGGACTGGGTCAGTGCTA` the log fluorescence was 1.69 z-score.

Study 3
Target: Ras GTPase-activating protein-binding protein 1, full length (G3BP1, Homo sapiens, UniProt Q13283)
Chain of UniProt Q13283 (whole entry, looked up): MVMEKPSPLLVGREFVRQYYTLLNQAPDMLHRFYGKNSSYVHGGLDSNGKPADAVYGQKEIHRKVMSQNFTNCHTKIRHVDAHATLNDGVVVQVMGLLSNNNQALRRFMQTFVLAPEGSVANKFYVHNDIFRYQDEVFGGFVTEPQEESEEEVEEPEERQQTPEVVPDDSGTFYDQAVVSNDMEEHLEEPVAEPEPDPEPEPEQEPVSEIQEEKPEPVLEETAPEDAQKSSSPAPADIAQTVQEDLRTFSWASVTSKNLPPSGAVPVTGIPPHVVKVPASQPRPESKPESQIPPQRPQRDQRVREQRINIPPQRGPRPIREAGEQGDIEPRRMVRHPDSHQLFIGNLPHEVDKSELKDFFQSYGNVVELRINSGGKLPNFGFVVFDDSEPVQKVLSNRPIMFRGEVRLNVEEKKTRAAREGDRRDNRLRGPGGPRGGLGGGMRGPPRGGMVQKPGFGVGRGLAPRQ
Method: RNA Bind-n-Seq
Molecule type: RNA
Sample: in vitro
Concentration: 200 nM
Notes: whole 134-nt RNA, ends assumed
Together with: 150 mM LiCl
Relative to: input library
Reading: higher = stronger binding
All molecules: 7-deaza-guanosine replaces G
The log2 enrichment of `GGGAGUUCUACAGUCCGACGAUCUAGCUUUAGAGGAGGAUCUGAUGGAUAUGGCAGUGGACGUGGAUUUGGGGAUGGCUAUAAUGGGUAUGGAGGAGGACCUGGAGGUGGCAAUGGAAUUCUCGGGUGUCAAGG` is reported as -0.209.
With `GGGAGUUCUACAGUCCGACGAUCCAAGUCCUGUGCUACACAUCGUAUGUACCGAAUCGGAAAGGAAAGGAAAAAAAGGAAAGUAUUAUGUUACGCCGUUCGGAUCUGCACUUCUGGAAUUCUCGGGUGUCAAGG` the log2 enrichment was -0.24.
For `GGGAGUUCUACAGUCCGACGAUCCUCAAGUCCUGUGCUACACAUCGUAUGUACCGAAUCGGGUUGGGGUUGGUUGGAAAGUAUUAUGUUACGCCGUUCGGAUCUGCACUUCCAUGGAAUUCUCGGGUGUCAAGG`, the log2 enrichment was 0.226.
`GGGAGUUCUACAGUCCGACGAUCUCUAUUCAUAAGAACCCCAACACAUCGGAGCCCCAACACCUGUUGGUGAUGAAGGGCGCCCCAGAAAGGAUCCUAGACCGUUGCAGCUCUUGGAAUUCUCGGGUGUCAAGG` has a log2 enrichment of 1.68.
`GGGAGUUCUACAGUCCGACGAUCACCAUGCAGGUGGGCAUCUUUGGGAAGUGGGGCAAGGUGGGGAUAGGGAGGGGGGUAACACUUUGGGAACAGGUGGUCCCAGGUCGUUUCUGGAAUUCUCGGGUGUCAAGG` has a log2 enrichment of 0.399.
For `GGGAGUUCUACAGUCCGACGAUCUGGCCCUGGUGGCAUGCGGGGAGGAAGAGGUGGCCUCAUGGAUCGUGGUGGUCCCGGUGGAAUGUUCAGAGGUGGCCGUAGUGGAGACAGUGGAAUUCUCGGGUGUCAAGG`, the log2 enrichment was -0.345.
`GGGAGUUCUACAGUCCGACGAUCCUCAAGUCCUGUGCUACACAUCGUAUGUACCGAAUCGGGGUUGGUUGGGGUUGGAAAGUAUUAUGUUACGCCGUUCGGAUCUGCACUUCCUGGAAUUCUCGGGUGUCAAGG` has a log2 enrichment of 0.307.

Further values, each from its own experiment
The fold induction of `PhoQ, residues 284 288 289 292 302 303 ASSHFY` is reported as 20 (PhoP, residues 12 14 15 18 19 NQCAL (Escherichia coli, UniProt P23836); Sort-seq, item: YFP reporter; E. coli; PhoQ-PhoP variant library, together with: 10 µM Mg2+; relative to: high Mg2+ state, higher = stronger signaling).
